Measured values collected from several papers.
Parts stem from different laboratories: compare values within a part only. Substitutions count along the parent as printed.
UniProt Q94JM3, sequence (whole entry, looked up): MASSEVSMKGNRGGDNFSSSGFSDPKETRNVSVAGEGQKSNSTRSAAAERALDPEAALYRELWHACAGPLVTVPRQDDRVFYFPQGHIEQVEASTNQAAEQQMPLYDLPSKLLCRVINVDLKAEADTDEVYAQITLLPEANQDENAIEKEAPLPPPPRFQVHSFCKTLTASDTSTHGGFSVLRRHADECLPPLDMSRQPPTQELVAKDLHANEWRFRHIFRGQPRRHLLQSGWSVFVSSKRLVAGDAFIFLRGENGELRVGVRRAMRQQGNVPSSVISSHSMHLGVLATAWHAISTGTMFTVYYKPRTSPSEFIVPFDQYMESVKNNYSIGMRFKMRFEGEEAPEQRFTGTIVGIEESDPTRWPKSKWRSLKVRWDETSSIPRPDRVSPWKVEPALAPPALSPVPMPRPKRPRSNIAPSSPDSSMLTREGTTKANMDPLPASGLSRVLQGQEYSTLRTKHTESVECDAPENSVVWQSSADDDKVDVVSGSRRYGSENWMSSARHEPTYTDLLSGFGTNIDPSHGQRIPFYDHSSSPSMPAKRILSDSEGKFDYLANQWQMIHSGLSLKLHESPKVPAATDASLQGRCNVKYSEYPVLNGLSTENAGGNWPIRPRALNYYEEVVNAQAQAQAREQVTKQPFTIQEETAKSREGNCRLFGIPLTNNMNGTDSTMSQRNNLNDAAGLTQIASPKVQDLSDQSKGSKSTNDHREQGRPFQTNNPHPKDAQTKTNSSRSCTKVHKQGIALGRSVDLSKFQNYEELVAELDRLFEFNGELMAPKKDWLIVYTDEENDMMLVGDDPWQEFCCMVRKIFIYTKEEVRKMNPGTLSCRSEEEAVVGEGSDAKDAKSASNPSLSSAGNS
UniProt Q9LQE8, sequence (whole entry, looked up): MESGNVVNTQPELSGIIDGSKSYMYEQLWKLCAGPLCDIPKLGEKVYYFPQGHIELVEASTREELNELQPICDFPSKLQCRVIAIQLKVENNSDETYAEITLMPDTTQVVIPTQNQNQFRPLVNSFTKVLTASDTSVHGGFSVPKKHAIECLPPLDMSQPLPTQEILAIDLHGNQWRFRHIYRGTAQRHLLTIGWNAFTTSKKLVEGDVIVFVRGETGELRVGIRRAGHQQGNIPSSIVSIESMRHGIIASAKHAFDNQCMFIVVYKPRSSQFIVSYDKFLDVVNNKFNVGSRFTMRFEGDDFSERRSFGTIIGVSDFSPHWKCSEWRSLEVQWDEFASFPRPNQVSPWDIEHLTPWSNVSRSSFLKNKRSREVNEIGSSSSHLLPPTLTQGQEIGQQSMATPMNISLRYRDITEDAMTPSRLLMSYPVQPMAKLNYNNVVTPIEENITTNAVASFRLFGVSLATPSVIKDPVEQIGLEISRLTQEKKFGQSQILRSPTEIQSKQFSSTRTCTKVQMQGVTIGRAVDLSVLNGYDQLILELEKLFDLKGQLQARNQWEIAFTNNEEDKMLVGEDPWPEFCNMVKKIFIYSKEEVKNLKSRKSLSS
UniProt O23661, sequence (whole entry, looked up): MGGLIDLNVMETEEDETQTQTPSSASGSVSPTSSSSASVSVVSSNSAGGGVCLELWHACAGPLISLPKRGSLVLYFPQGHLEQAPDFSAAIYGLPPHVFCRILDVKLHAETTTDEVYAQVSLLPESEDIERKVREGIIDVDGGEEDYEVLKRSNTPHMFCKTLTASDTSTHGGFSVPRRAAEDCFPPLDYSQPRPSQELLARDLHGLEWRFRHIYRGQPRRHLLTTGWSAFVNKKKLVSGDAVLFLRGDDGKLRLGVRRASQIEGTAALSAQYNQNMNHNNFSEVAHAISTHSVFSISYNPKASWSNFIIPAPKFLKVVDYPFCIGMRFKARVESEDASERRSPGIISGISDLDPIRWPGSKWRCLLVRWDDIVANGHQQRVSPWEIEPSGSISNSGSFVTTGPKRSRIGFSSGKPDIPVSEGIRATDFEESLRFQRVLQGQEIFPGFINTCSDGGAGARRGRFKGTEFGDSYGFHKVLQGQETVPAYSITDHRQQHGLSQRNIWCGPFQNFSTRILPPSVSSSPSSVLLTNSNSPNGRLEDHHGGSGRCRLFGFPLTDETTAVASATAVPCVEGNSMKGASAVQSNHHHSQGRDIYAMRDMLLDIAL
UniProt Q9ZSY8, sequence (whole entry, looked up): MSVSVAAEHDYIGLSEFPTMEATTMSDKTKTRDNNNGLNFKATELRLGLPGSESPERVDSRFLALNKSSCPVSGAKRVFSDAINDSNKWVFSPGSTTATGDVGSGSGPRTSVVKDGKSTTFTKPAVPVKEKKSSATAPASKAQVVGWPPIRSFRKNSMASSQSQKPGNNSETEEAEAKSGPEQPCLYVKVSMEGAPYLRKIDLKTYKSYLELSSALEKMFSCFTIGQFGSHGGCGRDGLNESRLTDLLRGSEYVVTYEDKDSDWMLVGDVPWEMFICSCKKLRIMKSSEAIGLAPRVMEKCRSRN
UniProt Q9SKN5, sequence (whole entry, looked up): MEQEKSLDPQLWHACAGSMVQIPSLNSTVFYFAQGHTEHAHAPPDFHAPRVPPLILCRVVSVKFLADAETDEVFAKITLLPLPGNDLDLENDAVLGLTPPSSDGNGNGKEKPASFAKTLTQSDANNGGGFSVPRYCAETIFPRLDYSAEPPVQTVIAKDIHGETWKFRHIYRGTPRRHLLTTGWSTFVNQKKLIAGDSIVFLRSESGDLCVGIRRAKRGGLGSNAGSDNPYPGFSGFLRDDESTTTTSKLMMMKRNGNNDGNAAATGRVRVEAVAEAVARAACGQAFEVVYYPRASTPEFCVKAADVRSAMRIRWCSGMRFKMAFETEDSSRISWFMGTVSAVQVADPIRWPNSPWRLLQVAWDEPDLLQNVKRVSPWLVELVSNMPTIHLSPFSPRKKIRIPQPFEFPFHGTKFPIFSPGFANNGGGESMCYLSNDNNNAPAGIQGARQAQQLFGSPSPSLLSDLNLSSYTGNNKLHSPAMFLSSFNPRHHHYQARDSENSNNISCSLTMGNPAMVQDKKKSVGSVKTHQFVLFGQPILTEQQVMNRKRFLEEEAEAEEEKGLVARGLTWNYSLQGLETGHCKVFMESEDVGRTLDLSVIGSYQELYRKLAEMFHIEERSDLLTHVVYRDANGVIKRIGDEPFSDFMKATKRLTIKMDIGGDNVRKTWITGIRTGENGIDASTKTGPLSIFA
UniProt Q8RYC6, sequence (whole entry, looked up): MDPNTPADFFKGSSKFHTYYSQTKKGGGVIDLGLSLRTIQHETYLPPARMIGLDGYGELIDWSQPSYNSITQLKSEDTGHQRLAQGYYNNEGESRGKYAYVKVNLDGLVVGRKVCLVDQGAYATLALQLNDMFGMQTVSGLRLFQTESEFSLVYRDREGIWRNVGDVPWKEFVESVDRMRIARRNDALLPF
UniProt Q9M1R4, sequence (whole entry, looked up): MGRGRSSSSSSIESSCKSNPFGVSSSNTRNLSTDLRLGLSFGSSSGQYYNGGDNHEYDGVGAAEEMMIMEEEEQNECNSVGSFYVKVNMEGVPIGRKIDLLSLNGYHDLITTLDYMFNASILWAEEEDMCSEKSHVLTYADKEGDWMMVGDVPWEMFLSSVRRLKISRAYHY

Study 1
Target: DBP, bZIP domain (human)
Method: DHFR protein complementation
Sample: yeast
Notes: single substitutions, most at no-binding floor
Reference: wild-type JUN-FOS pair
Reading: higher = stronger binding
Starting sequence: JUN, bZIP domain (human); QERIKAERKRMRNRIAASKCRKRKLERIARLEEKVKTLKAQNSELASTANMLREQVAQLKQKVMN; partner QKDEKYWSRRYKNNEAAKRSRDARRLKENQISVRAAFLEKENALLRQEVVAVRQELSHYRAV
Variant | binding fitness [natural log]
K39F | -1.42
T48W | -1.31
I28P | -1.44
A40L | -1.29
E44V | -1.45
R30N | -1.17
Q55H | -1.33
A29W | -1.52
I28F | -1.48
Q41F | -1.47
A46W | -1.27
L45P | -1.5
E54F | -1.56
K34V | -1.32
A40N | -1.63
L38I | -1.37
A40E | -1.52

Study 2
Molecule: B1 (IAA17)
Method: two-hybrid
Reading: higher = firmer interaction
B1: IAA17 (Arabidopsis thaliana, UniProt P93830); chain MMGSVELNLRETELCLGLPGGDTVAPVTGNKRGFSETVDLKLNLNNEPANKEGSTTHDVVTFDSKEKSACPKDPAKPPAKAQVVGWPPVRSYRKNVMVSCQKSSGGPEAAAFVKVSMDGAPYLRKIDLRMYKSYDELSNALSNMFSSFTMGKHGGEEGMIDFMNERKLMDLVNSWDYVPSYEDKDGDWMLVGDVPWPMFVDTCKRLRLMKGSDAIGLAPRAMEKCKSRA
partner | setting | scale | positive tests
IAA30 (Arabidopsis thaliana, UniProt Q9M1R4) | weak activation fusion | reference: out of 4 tests | 0
ARF2 727-859 (Arabidopsis thaliana, UniProt Q94JM3) |  | reference: out of 4 tests | 0
ETT (Arabidopsis thaliana, UniProt O23661) |  | reference: out of 2 tests | 0
IAA32 (Arabidopsis thaliana, UniProt Q8RYC6) |  | reference: out of 4 tests | 1
ARF14 497-605 (Arabidopsis thaliana, UniProt Q9LQE8) |  | reference: out of 2 tests | 0
ARF10 575-693 (Arabidopsis thaliana, UniProt Q9SKN5) |  | reference: out of 4 tests | 2
IAA27 (Arabidopsis thaliana, UniProt Q9ZSY8) |  | reference: out of 4 tests | 3

Study 3
Target: RNA binding protein fox-1 homolog 2, RRM domain, GST-SBP tag (RBFOX2, Homo sapiens, UniProt O43251-10, residues 100-194)
Method: RNA Bind-n-Seq
Form: RNA
Sample: in vitro
Concentration: 365 nM
Notes: natural RNA segment, single round, ends assumed
Reference: no-protein control
Reading: higher = stronger binding
All sequences stand within: GGGAGUUCUACAGUCCGACGAUC … UGGAAUUCUCGGGUGCCAA
Residues (chain): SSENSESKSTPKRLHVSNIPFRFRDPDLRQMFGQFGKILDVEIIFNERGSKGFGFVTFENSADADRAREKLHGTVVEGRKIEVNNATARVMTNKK
Oligonucleotide | RBNS enrichment (R)
UGAAAGAGAUUCUUGACCUUAUUUCUAAACGUCUAGAGCUCUGAAAUGUCUUGAUGGAAGGUAUUAAACUAUUUGCCUGUUGUACAAAGAAAUGUUAAGACUCGUGAAAA | 0.524
GGGCCAUACCAGGGCGCGGCGCUGGGUUGCCACACUUGGGAAAGCAGCCCGGAGCUGGGUGCUGGGGAAGGCGGGGCGCGUAGCCUCCCGCCGCCCUGCGGUUGGGCCGG | 0.251
CCCCUACGUGUGGGACUGGUCAGCGGUGGCGAGGAGAGGCGGGCGGAUUUGGGGAGGGCCCUGAGGACCUGGCCCCGGGCAAGGGACUCUCCAGGCUCCUCCUCCCCCUG | 0.383
UCUGUCCUGAAAGCUUUGCCUCUUUCUUGGCAAAGUUUCUGGUAUGGUCAAGCUUGUAAAUAACUUUUUUUACAUUUUAAUCUUUUCCAUUAAUUAAGAGGUUGAAAAGA | 0.317
CAUUAAAGAAAAUGGUUUUCUACCAUUUCGACUGGAUCAUAUCAGAAAGAUGGCAUAUCAGAUAUGCAAGUCUGUGAAUGUUUUGCACAGUAAUAAGUUGACUCACACAG | 0.338
AUGUUUACUUUUUUUGUAUUGAUCACUUUUUUGCACUCCUUCUUUGUUUUCAAUAUUGUAUUCAGCCUAUUGUAGGAGGGGGAUGUGGCGUUUCAACUCAUAUAAUACAG | 0.855
CAAGGACUGCAAGAUUAUUUGAUAAAGAGUAGCAUGAAUCUUGUGCUCUAAUAUUACACAGUAAGUUCAAAGAAAGGAUGUAAGUCAAAGACUUGUUACAUAGAGGGAAA | 18.3
ACACUAGGUCACCCAGGCAAAGCCAGUGGACAGAUGCCUUUCAUAUAACCUGGGUGGGCUUUUGGAAAAUCUUUGAGAAGUUGAUUUCAUAGGCUGUAGAACAGUAAAGU | 0.98
GACCUUAAAGUUAUUGAGUUUAAGCUACAAAUUGUAACGUCAUUACUGGACAUGUCAGCAUCAACCCUCUCAAAAUAGCUUGGUCACUUUAUGAAGGGGCGUUUUAAAGU | 0.431
UUCCGGGAGCUGGUGACAGCCUUGGGCCUUUCAGUCCCAAAGCGGCCGAUGGGAGUCUCCCUCCGACUCCAGAUAUGAACAGGGCCCAGGCCUGGAGCGUUUGCUGUGCC | 0.63
UCUUGUGUUGGCUGUGGCAGGCCAGCUGUGGUUUUCUUUUGCCAUGACAACUUCUAAUUGCCAUGUACAGUAUGUUCAAAGUCAAAUAACUCCUCAUUGUAAACAAACUG | 0.357
UACUAAAGGUUUUACUGUCAUAAUUUAAAGGGGACUCUUCACGACCCGUCACAAUAAACCAUUCUCAAGUUAUCUAUGUGUGUGUGUAUAUAUAUCUCAGGUUUUUAGAC | 0.566

Study 4
Target: Prothrombin, mature alpha-thrombin (F2, Homo sapiens, UniProt P00734)
Method: aptamer microarray, sandwich
Form: DNA with 2'F-ANA
Sample: in vitro
Concentration: 200 nM
Notes: whole 15-mer aptamer, many near background
With: Cy3 exosite-II aptamer, 400 nM
Reading: higher = stronger binding
Oligonucleotide: GGTTGGTGTGGTTGG
Modification | mean fluorescence intensity [a.u.]
2'F-ANA at 1 2 6 8 10 11 | 51.4
2'F-ANA at 1 2 5 8 9 11 12 | 124
2'F-ANA at 1 3 5 7 8 9 13 14 | 46.8
2'F-ANA at 8 10 13 | 159
2'F-ANA at 4 5 6 8 9 11 | 60.5
2'F-ANA at 1 2 8 9 10 11 12 14 15 | 52.7
2'F-ANA at 2 3 5 7 8 10 11 14 15 | 54.3
2'F-ANA at 1 3 4 5 6 7 8 10 12 13 14 15 | 47.4
2'F-ANA at 2 4 5 8 10 14 15 | 47.1
2'F-ANA at 2 4 5 6 7 15 | 62.3
2'F-ANA at 1 5 13 | 48.6
2'F-ANA at 2 3 8 9 10 11 13 14 | 225
2'F-ANA at 3 5 6 7 8 9 10 11 13 15 | 53.7
2'F-ANA at 1 2 3 4 5 7 8 12 | 157
2'F-ANA at 1 3 4 6 10 12 | 81
2'F-ANA at 1 2 4 6 14 15 | 56.5
2'F-ANA at 5 6 7 13 15 | 53.4
2'F-ANA at 1 2 5 7 8 9 11 14 15 | 52.2
2'F-ANA at 2 4 5 8 9 12 | 163
2'F-ANA at 1 2 3 4 5 6 7 8 11 13 14 | 48.4
2'F-ANA at 2 8 9 12 14 15 | 186
2'F-ANA at 1 3 4 5 10 11 14 15 | 43.7
2'F-ANA at 1 2 4 8 10 11 12 13 15 | 52.2
2'F-ANA at 1 6 9 10 11 15 | 81.3

Study 5
Target: TAR DNA-binding protein 43, full length, His tag (TARDBP, Homo sapiens, UniProt Q13148, residues 1-414)
Method: RNA Bind-n-Seq
Form: RNA
Sample: in vitro
Concentration: 20 nM
Notes: 6-mer, flanks averaged, single round
With: 150 mM LiCl
Reference: input library
Reading: higher = stronger binding
Oligonucleotide | 6-mer enrichment (R)
CUAGAC | 0.818
UAGCGA | 0.902
GAGCUU | 0.913
AUCCCC | 1.11
AACCCC | 1.03
UCAUGG | 0.922
UUUGAA | 1.07
UCCCCU | 1.22
ACGUUC | 0.835
UGCCUC | 0.963
AGACGG | 0.934
UAAUGC | 0.921

Study 6
Target: CCNB2, cyclin fold, Cln2 fusion (human)
Method: yeast growth competition, sequencing
Sample: yeast
Notes: strong parent motif
Reference: not given
Reading: higher = stronger binding
Starting sequence: PKMYT1 docking peptide (human); SFEPRNLLSLFED
Variant | normalised enrichment score
SMEPRNLLSLFED [F2M] | 1.42
SFEPRNLLSPFED [L10P] | -1.13
SFEVRNLLSLFED [P4V] | 0.273
SFEPRNLLSNFED [L10N] | 0.62
SFEPRNYLSLFED [L7Y] | -0.503
SFEPRNHLSLFED [L7H] | -0.208
SFEQRNLLSLFED [P4Q] | 0.496
YFEPRNLLSLFED [S1Y] | 1.45
SFEPNNLLSLFED [R5N] | -0.0777
SFEPRNLLSLFID [E12I] | 0.357
DFEPRNLLSLFED [S1D] | 1.73
SFEPRSLLSLFED [N6S] | 0.0963
SFEPRNLASLFED [L8A] | 0.897
SFEPRNLCSLFED [L8C] | 0.782
PFEPRNLLSLFED [S1P] | 1.16
SFEPRNLTSLFED [L8T] | 0.517
SFEPRYLLSLFED [N6Y] | -0.527
SFEPANLLSLFED [R5A] | 0.878

Excerpt of the above (study 6):
Variant | normalised enrichment score
SFEPRNLASLFED [L8A] | 0.897
SFEPRNLLSNFED [L10N] | 0.62
SFEPRNHLSLFED [L7H] | -0.208
SFEPRNLLSPFED [L10P] | -1.13
SFEQRNLLSLFED [P4Q] | 0.496
SFEPRYLLSLFED [N6Y] | -0.527
SFEPRSLLSLFED [N6S] | 0.0963
SFEPNNLLSLFED [R5N] | -0.0777
YFEPRNLLSLFED [S1Y] | 1.45
SFEPRNLCSLFED [L8C] | 0.782
